Measurements pooled from the literature.
± gives the spread as reported.
YES1 SH2 domain: Tyrosine-protein kinase Yes, SH2 domain (YES1, Homo sapiens, UniProt P07947)
Chain of UniProt P07947 (whole entry, looked up): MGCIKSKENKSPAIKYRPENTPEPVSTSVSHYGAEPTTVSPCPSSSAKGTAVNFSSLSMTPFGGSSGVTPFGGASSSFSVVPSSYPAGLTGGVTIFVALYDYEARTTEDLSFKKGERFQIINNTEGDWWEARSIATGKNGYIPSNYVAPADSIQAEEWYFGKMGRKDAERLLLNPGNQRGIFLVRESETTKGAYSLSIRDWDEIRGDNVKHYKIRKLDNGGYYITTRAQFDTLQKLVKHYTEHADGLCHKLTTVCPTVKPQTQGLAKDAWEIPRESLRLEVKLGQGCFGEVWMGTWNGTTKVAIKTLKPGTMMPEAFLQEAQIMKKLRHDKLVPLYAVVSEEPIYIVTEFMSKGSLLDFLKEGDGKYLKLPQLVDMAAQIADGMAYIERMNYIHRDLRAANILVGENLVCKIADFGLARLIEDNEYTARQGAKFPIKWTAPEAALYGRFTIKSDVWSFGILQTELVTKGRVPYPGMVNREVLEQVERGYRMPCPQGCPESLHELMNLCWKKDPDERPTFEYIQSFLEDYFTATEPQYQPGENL
Chain of UniProt Q8LBL5 (whole entry, looked up): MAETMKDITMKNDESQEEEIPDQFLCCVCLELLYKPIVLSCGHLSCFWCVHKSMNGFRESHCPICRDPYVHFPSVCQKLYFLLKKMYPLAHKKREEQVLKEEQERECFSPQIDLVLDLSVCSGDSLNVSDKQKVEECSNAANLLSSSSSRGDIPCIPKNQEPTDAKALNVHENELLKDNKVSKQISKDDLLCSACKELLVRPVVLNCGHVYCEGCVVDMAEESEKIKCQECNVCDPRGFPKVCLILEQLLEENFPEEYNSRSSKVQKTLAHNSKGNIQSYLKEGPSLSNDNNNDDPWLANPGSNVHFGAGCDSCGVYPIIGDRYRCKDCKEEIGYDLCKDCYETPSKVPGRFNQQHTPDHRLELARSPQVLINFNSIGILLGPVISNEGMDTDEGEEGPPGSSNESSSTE
Chain of UniProt P40874 (whole entry, looked up): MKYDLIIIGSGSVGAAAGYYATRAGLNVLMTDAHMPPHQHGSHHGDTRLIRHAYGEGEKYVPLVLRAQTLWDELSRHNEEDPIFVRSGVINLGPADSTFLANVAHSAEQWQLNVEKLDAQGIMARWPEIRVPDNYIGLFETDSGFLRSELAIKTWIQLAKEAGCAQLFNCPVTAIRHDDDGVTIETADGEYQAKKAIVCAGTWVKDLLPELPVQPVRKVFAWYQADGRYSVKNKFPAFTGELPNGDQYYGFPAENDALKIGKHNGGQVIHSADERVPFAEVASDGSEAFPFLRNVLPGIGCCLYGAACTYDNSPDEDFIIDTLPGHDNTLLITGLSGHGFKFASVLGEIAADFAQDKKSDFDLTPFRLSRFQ
Chain of UniProt Q08460 (whole entry, looked up): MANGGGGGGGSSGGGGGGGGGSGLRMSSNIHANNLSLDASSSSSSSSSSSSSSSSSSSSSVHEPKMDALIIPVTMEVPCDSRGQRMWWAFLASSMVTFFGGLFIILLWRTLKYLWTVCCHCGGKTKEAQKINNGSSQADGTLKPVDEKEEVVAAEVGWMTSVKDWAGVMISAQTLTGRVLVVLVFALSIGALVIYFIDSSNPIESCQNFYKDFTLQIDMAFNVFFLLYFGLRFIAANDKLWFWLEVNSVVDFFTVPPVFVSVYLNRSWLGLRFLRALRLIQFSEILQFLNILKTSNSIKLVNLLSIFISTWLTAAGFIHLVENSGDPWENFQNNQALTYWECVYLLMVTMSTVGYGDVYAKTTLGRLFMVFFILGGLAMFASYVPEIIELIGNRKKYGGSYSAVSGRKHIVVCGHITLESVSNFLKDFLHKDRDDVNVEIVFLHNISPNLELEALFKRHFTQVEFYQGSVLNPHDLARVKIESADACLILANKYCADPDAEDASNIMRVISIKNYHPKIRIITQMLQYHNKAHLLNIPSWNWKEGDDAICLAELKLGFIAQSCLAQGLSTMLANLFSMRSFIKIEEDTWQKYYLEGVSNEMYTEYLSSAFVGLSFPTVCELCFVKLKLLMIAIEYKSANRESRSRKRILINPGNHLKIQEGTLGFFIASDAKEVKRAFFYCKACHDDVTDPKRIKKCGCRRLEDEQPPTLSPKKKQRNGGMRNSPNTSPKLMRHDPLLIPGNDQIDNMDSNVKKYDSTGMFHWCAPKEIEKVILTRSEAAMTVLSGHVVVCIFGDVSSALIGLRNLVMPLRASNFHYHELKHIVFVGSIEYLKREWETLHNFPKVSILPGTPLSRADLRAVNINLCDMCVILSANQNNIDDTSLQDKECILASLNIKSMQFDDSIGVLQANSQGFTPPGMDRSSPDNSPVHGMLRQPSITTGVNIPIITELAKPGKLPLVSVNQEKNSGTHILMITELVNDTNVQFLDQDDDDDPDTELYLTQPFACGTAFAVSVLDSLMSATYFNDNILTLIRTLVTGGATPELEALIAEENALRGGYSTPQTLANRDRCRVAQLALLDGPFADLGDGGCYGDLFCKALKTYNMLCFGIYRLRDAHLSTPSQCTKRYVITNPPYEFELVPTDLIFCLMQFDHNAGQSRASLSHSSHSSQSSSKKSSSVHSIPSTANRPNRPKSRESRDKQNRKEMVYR
Chain of UniProt P52003 (whole entry, looked up): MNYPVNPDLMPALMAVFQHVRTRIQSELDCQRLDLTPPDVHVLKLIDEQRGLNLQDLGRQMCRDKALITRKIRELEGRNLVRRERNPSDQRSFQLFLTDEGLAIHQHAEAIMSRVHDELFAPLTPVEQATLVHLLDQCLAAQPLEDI
Chain of UniProt Q9H6Y2 (whole entry, looked up): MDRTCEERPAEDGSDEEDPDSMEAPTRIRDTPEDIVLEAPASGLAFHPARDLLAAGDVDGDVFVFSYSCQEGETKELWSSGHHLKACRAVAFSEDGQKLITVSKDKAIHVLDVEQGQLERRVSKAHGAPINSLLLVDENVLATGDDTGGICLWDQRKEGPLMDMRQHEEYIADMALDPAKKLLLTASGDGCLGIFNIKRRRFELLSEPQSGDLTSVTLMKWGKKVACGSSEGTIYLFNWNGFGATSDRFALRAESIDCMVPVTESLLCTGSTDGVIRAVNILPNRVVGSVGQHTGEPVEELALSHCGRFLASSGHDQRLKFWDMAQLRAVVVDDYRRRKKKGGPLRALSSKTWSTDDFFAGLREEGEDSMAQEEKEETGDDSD
Chain of UniProt O00459 (whole entry, looked up): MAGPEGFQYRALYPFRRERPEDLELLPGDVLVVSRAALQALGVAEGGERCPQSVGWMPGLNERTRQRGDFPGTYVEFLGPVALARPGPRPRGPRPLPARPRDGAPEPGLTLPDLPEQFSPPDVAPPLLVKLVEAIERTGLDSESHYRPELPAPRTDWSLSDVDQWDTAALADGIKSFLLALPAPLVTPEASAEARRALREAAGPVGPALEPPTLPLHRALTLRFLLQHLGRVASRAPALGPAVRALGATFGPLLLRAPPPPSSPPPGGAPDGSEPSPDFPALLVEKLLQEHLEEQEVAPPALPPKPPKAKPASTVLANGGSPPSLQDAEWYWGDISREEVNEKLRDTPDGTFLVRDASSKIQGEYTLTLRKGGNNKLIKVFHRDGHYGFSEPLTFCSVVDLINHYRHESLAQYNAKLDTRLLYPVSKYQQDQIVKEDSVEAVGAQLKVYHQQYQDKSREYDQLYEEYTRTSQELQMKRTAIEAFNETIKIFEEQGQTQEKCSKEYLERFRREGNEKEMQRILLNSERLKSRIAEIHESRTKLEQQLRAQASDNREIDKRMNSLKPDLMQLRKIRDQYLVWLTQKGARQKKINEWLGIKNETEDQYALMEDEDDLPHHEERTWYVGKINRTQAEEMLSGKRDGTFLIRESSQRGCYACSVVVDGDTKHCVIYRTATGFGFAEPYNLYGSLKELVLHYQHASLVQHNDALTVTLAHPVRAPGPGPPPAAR
Chain of UniProt P51451 (whole entry, looked up): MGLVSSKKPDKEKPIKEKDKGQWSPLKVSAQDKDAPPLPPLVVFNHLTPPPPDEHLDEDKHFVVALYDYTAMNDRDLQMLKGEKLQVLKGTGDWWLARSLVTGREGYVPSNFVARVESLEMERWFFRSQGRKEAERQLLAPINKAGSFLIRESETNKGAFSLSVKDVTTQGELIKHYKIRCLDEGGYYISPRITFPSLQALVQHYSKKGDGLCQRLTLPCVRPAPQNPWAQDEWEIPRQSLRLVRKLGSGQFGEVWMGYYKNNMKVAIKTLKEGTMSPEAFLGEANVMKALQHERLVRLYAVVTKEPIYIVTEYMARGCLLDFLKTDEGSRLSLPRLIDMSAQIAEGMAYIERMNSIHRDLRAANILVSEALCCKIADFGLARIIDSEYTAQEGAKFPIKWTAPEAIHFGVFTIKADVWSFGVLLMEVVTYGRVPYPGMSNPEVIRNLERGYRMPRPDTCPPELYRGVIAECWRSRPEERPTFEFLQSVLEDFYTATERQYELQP
Chain of UniProt P03023 (whole entry, unmodified, looked up): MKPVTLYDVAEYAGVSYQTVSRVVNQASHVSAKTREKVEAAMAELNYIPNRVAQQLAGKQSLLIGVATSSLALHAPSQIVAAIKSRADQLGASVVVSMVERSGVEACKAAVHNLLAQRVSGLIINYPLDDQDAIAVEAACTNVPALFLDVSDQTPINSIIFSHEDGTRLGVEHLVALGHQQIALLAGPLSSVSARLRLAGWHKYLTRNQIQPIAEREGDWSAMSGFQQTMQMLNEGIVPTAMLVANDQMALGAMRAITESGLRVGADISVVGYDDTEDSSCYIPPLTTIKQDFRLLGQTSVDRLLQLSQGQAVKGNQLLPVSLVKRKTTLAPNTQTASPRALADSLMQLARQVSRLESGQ
Chain of UniProt Q9EP73 (whole entry, looked up): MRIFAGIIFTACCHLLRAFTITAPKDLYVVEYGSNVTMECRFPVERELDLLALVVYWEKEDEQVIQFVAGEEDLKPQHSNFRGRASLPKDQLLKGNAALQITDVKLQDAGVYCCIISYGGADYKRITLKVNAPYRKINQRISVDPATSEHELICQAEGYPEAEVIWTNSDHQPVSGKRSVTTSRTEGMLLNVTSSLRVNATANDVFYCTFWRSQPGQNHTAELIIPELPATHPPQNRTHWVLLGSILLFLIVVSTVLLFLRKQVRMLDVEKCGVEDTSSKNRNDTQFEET

C/C1=C\[C@H](C)C[C@H](C)OC(=O)C[C@H](c2ccc(O)cc2)NC(=O)[C@@H](Cc2c(Br)[nH]c3ccccc23)N(C)C(=O)[C@H](C)NC(=O)[C@@H](C)C1 — Kd (ACTC1/TPM1 (Bos taurus, UniProt Q3ZC07+Q5KR49); binding, isothermal titration calorimetry): 2.64 nM
COc1cc2c3c(n(CCCNCCO)c(=O)c2cc1OC)-c1cc2c(cc1C3=O)OCO2 — Kd (MYC G-quadruplex DNA; binding, fluorescence; pH 7.0, 20 °C, added: K+ 100 mM): 11 nM
Cn1c2cccc(=O)c-2nc2ccccc21 — Kd (Multidrug resistance operon repressor (mexR, Pseudomonas aeruginosa, UniProt P52003); surface plasmon resonance; 25 °C): 5170 nM
CN[C@@H](Cc1c[nH]c2ccccc12)C(=O)O — Kd (N-methyl-L-tryptophan oxidase, reduced (solA, Escherichia coli, UniProt P40874); spectral titration, anaerobic; pH 8.0, 25 °C): 934000 ± 218000 nM
CC[C@@H](C)[C@@H](NC(=O)[C@@H](Cc1ccc(O)cc1)NC(=O)[C@H]1CCCN1C(=O)[C@@H](CCCNC(=N)N)NC(=O)[C@H](N)Cc1c[nH]cn1)C(=O)N[C@H](C)C(=O)N[C@H](Cc1c[nH]cn1)C(=O)N[C@H](CCCNC(=N)N)C(=O)N[C@@H](C(=O)N[C@H](Cc1ccc(O)cc1)C(=O)N[C@H](CO)C(=O)N[C@H](Cc1ccccc1)C(N)=O)C(C)C — Kd (Cd274 (Mus musculus, UniProt Q9EP73); microscale thermophoresis; 2 h, His-tagged protein): 6400 ± 1200 nM
CC[C@H](C)[C@H](NC(=O)[C@H](CC(=O)O)NC(=O)[C@H](C)NC(=O)[C@H](Cc1ccc(OP(=O)(O)O)cc1)NC(=O)[C@H](CCCCN)NC(=O)[C@@H](NC(=O)[C@H](CC(=O)O)NC(=O)CNC(=O)[C@H](CCCCN)NC(=O)[C@H](CCSC)NC(=O)[C@H](CC(=O)O)NC(=O)[C@H](CC(C)C)NC(=O)[C@H](CCSC)NC(=O)c1ccc2c(c1)C(=O)OC21c2ccc(N(C)C)cc2Oc2cc(N(C)C)ccc21)C(C)C)C(=O)N[C@@H](CCC(=O)O)C(=O)N[C@@H](CO)C(=O)N[C@@H](CO)C(=O)N[C@@H](CC(N)=O)C(=O)N[C@@H](CC(=O)O)C(=O)O — Kd (YES1 SH2 domain; binding): 1480 nM
Nc1ncnc2c1ncn2[C@@H]1O[C@H](COP(=O)(O)OP(=O)(O)NP(=O)(O)O)[C@@H](O)[C@H]1O — Kd (Inactive tyrosine-protein kinase PRAG1 (PRAG1, Homo sapiens, UniProt Q86YV5); binding, SPR): 1500 nM
CSCC[C@H](NC(=O)[C@H](CC(=O)O)NC(=O)c1ccc2c(c1)C(=O)OC21c2ccc(N(C)C)cc2Oc2cc(N(C)C)ccc21)C(=O)N[C@@H](CO)C(=O)N[C@@H](CCCCN)C(=O)N[C@@H](CC(=O)O)C(=O)N[C@@H](CCC(=O)O)C(=O)N[C@@H](CO)C(=O)N[C@H](C(=O)N[C@@H](CC(=O)O)C(=O)N[C@@H](Cc1ccc(OP(=O)(O)O)cc1)C(=O)N[C@H](C(=O)N1CCC[C@H]1C(=O)N[C@@H](CCSC)C(=O)N[C@@H](CC(C)C)C(=O)N[C@@H](CC(=O)O)C(=O)N[C@@H](CCSC)C(=O)N[C@@H](CCCCN)C(=O)N[C@@H](CC(=O)O)C(=O)O)C(C)C)C(C)C — Kd (Phosphatidylinositol 3-kinase regulatory subunit beta, SH2 domain (Homo sapiens, UniProt O00459); binding): 10 nM
C[C@H](NC(=O)[C@H](C)NC(=O)[C@@H](N)Cc1ccc(O)cc1)C(=O)O — Kd (E3 ubiquitin-protein ligase PRT1 (PRT1, Arabidopsis thaliana, UniProt Q8LBL5); ITC; pH 7.5, 25 °C): 23300 ± 958 nM
CSCC[C@H](NC(=O)[C@H](Cc1ccc(OP(=O)(O)O)cc1)NC(=O)CNC(=O)CNC(=O)[C@H](CC(=O)O)NC(=O)[C@H](CO)NC(=O)[C@H](CCC(=O)O)NC(=O)CNC(=O)[C@@H](NC(=O)[C@H](CC(C)C)NC(=O)[C@H](CO)NC(=O)c1ccc2c(c1)C(=O)OC21c2ccc(N(C)C)cc2Oc2cc(N(C)C)ccc21)[C@@H](C)O)C(=O)N[C@@H](CC(=O)O)C(=O)N[C@@H](CCSC)C(=O)N[C@@H](CO)C(=O)N[C@@H](CCCCN)C(=O)N[C@@H](CC(=O)O)C(=O)N[C@@H](CCC(=O)O)C(=O)N[C@@H](CC(=O)O)C(=O)O — Kd (YES1 SH2 domain; binding): 718 nM
O=C(O)CCCc1c[nH]c2ccccc12 — Kd (Receptor protein kinase TMK1, extracellular domain (TMK1, Arabidopsis thaliana, UniProt P43298); binding): 6140 nM
COc1ccc(NC(=O)C(C)N2CC=C(c3ccnc4[nH]ccc34)CC2)cc1OC (centres unmarked) — Kd (WD repeat-containing protein 55 (WDR55, Homo sapiens, UniProt Q9H6Y2); binding, SPR; 20 °C): 15000 nM
CC[C@H](C)[C@H](NC(=O)[C@H](Cc1ccc(OP(=O)(O)O)cc1)NC(=O)[C@H](CCC(=O)O)NC(=O)[C@@H]1CCCN1C(=O)[C@@H](NC(=O)[C@@H]1CCCN1C(=O)[C@H](CC(C)C)NC(=O)[C@H](Cc1ccccc1)NC(=O)[C@@H](NC(=O)[C@H](CC(=O)O)NC(=O)[C@H](CC(=O)O)NC(=O)c1ccc2c(c1)C(=O)OC21c2ccc(N(C)C)cc2Oc2cc(N(C)C)ccc21)[C@@H](C)O)C(C)C)C(=O)N[C@@H](CC(N)=O)C(=O)N[C@@H](CCC(N)=O)C(=O)N[C@@H](CO)C(=O)N[C@H](C(=O)N1CCC[C@H]1C(=O)N[C@@H](CCCCN)C(=O)N[C@@H](CC(=O)O)C(=O)O)C(C)C — Kd (1-phosphatidylinositol 4,5-bisphosphate phosphodiesterase gamma-2, SH2 domain (PLCG2, Homo sapiens, UniProt P16885); binding): 1630 nM
CNC(=O)c1cccn(Cc2ccc3c(c2)OC(F)(F)O3)c1=O — Kd (Fascin (FSCN1, Homo sapiens, UniProt Q16658); binding): > 100000 nM
CC(C)S[C@@H]1O[C@H](CO)[C@H](O)[C@H](O)[C@H]1O — Kd (lacI (Escherichia coli, UniProt P03023, N125C)): 1400 ± 100 nM
Oc1ccc(/C=C/c2cc(O)cc(O)c2)cc1 — Kd (O-methyltransferase (Sorghum bicolor, UniProt A0A1B6PFV1, W279A); isothermal titration calorimetry; APO): 33100 nM
C[C@H](NC(=O)[C@@H](N)Cc1ccc(O)cc1)C(=O)N[C@@H](Cc1ccccc1)C(=O)O — Kd (E3 ubiquitin-protein ligase PRT1, ZZ domain (PRT1, Arabidopsis thaliana, UniProt Q8LBL5); binding, ITC; pH 7.5, ZZ domain): 10100 ± 851 nM
CC[C@H](C)[C@H](NC(=O)[C@H](Cc1ccc(OP(=O)(O)O)cc1)NC(=O)[C@H](CCC(=O)O)NC(=O)[C@H](Cc1c[nH]cn1)NC(=O)CNC(=O)[C@H](CC(=O)O)NC(=O)[C@H](CO)NC(=O)[C@H](CO)NC(=O)[C@@H](NC(=O)[C@H](CO)NC(=O)[C@H](CCC(=O)O)NC(=O)c1ccc2c(c1)C(=O)OC21c2ccc(N(C)C)cc2Oc2cc(N(C)C)ccc21)C(C)C)C(=O)N[C@@H](Cc1ccc(O)cc1)C(=O)N[C@H](C(=O)N[C@@H](CC(=O)O)C(=O)N1CCC[C@H]1C(=O)N[C@@H](CCSC)C(=O)N[C@@H](CCC(N)=O)C(=O)N[C@@H](CC(=O)O)C(=O)O)C(C)C — Kd (Tyrosine-protein kinase Blk, SH2 domain (BLK, Homo sapiens, UniProt P51451); binding): 573 nM
CC[C@H](C)[C@H](NC(=O)[C@H](CCC(N)=O)NC(=O)[C@@H](NC(=O)[C@@H]1CCCN1C(=O)[C@@H](NC(=O)[C@H](CO)NC(=O)[C@H](Cc1ccccc1)NC(=O)[C@@H]1CCCN1C(=O)[C@H](CCC(N)=O)NC(=O)[C@@H](N)CCSC)[C@@H](C)CC)C(C)C)C(=O)N[C@H](C(=O)N[C@@H](CC(C)C)C(=O)N[C@@H](CCC(N)=O)C(=O)NCC(=O)N[C@@H](CO)C(=O)N[C@@H](CCCNC(=N)N)C(=O)N[C@@H](CCCNC(=N)N)C(=O)N[C@@H](CCCNC(=N)N)C(=O)N[C@@H](CCC(N)=O)C(=O)NCC(=O)N[C@@H](CCCNC(=N)N)C(N)=O)[C@@H](C)O — Kd (Kcnma1 (Mus musculus, UniProt Q08460); ion current, blocker, inside-out patch clamp; Xenopus oocytes; +80 mV, added: 10 µM cytosolic Ca2+): 400 nM
CC[C@H](C)[C@@H]1NC(=O)[C@@](C)(NC(=O)[C@H](CCCNC(=N)N)NC(=O)[C@H](CC(C)C)NC(=O)[C@@H](NC(=O)[C@H](CCC(N)=O)NC(=O)[C@H](CC(C)C)NC(=O)[C@H](CCC(N)=O)NC(=O)[C@@H]2CCCN2C(=O)[C@H](CCCNC(=N)N)NC(=O)[C@H](CCCNC(=N)N)NC(=O)[C@H](CCCNC(=N)N)NC(=O)[C@H](CCC(N)=O)NC(=O)[C@H](CCCNC(=N)N)NC(=O)[C@H](CCCNC(=N)N)NC(=O)[C@H](CCCCN)NC(=O)[C@H](CCCCN)NC(=O)[C@H](CCCNC(=N)N)NC(=O)CNC(C)=O)[C@@H](C)O)CCCC=CCCC[C@@](C)(C(=O)N[C@@H](Cc2ccc3ccccc3c2)C(=O)NCCC(=O)NCCC(N)=O)NC(=O)[C@H](CCCNC(=N)N)NC(=O)[C@H](CCC(N)=O)NC1=O — Kd (Catenin beta-1 (CTNNB1, Homo sapiens, UniProt P35222); peptide binding, AlphaScreen): 25 nM

For quick reference, copied from above:
COc1ccc(NC(=O)C(C)N2CC=C(c3ccnc4[nH]ccc34)CC2)cc1OC (centres unmarked) — Kd (WD repeat-containing protein 55 (WDR55, Homo sapiens, UniProt Q9H6Y2); binding, SPR; 20 °C): 15000 nM
CC[C@H](C)[C@H](NC(=O)[C@H](Cc1ccc(OP(=O)(O)O)cc1)NC(=O)[C@H](CCC(=O)O)NC(=O)[C@@H]1CCCN1C(=O)[C@@H](NC(=O)[C@@H]1CCCN1C(=O)[C@H](CC(C)C)NC(=O)[C@H](Cc1ccccc1)NC(=O)[C@@H](NC(=O)[C@H](CC(=O)O)NC(=O)[C@H](CC(=O)O)NC(=O)c1ccc2c(c1)C(=O)OC21c2ccc(N(C)C)cc2Oc2cc(N(C)C)ccc21)[C@@H](C)O)C(C)C)C(=O)N[C@@H](CC(N)=O)C(=O)N[C@@H](CCC(N)=O)C(=O)N[C@@H](CO)C(=O)N[C@H](C(=O)N1CCC[C@H]1C(=O)N[C@@H](CCCCN)C(=O)N[C@@H](CC(=O)O)C(=O)O)C(C)C — Kd (1-phosphatidylinositol 4,5-bisphosphate phosphodiesterase gamma-2, SH2 domain (PLCG2, Homo sapiens, UniProt P16885); binding): 1630 nM
